Published values pooled from the literature.
Each line is one published result; not all experiments were run side by side. ± gives the spread as reported.
Technique: steady-state kinetics
B1: enzyme (Acinetobacter baumannii, UniProt D0CBC8); chain MALVLDGRALAKQIEENLLVRVEALKAKTGRTPILATILVGDDGASATYVRMKGNACRRVGMDSLKIELPQETTTEQLLAEIEKLNANPDVHGILLQHPVPAQIDERACFDAISLAKDVDGVTCLGFGRMAMGEAAYGSATPAGIMTILKENNIEIAGKHAVVVGRSAILGKPMAMMLLQANATVTICHSRTQNLPELVKQADIIVGAVGKAELIQKDWIKQGAVVVDAGFHPRDGGGVGDIQLQGIEEIASAYTPVPGGVGPMTITTLIRQTVEAAEKALG
B2: AtTPS18 G328P (Arabidopsis thaliana, UniProt Q9LUE2); chain STKSSDDLEGSRPSTYFSPSLWGDHFLSVSLDRGEFDELEREIETMKPLVKDMLMSSQSSDKEKIRLIHLLVSLGSSYHFDKEIQDILKHSFTKLDDIIVGEDDLETISIMFEVFRLYGHKMSCDAFDRFRGEDGRFKESLAKDVRGMLQLFEVAHLGTPSEDIMDEASSFAQNHLDSWIGGNVSGATPHLLKHIQNSLYIPRYCNIEVLVAREYISYYEQEEGHNKILLKFAKLNFNFCQFHYIQELKTLTKWWKDLDLASKLPYIRDRLVESHLPGLGPYFEPHYSLGRIIVAKIIMTMVVVDDTYDAHATVPEVAVLTECLQRLNIGADDKLPDYLRTVLESVFEVMGEIEQEMRPKGRSYGVKQVLERFKNVAKADKQLTEWARTGDVPSFDEYMKVGLVTAGMDGYAGYCFIGMEDVSEKEAFEWLSSNPLIIQALNVMFRLANDVGTYETEINRGEVANGLNCYMKQYGVTKEEASQELRKIYSNNKKVVMEEFMNSHDHVPRQVLLRCLNFARLFDVMYTEGDGYSEPKGKIEHFMTSLYVHPIPLS
B3: LYPLA1 (Homo sapiens, UniProt O75608); chain MCGNNMSTPLPAIVPAARKATAAVIFLHGLGDTGHGWAEAFAGIRSSHIKYICPHAPVRPVTLNMNVAMPSWFDIIGLSPDSQEDESGIKQAAENIKALIDQEVKNGIPSNRIILGGFSQGGALSLYTALTTQQKLAGVTALSCWLPLRASFPQGPIGGANRDISILQCHGDCDPLVPLMFGSLTVEKLKTLVNPANVTFKTYEGMMHSSCQQEMMDVKQFIDKLLPPID
B4: protein (Streptomyces sp. NRRL 30471, UniProt F2WUC8); chain MVRADYRTPEVNDVVRYRYGAAETALLKNRISEFGFTMAEVPGECAPQTEIERLGKALGLGEPYVAALYQRGDTRAHGALYTDVRSRAHNTHPGFGTTEGQTIHVDGLLEPIGTIRTTILFCVRPAVSGGRTVLFNSSAAFETLRHSDPAAAESLRDPGVLRRRSTLPNVDAGHTGPAFAYDNGLLITRYSEGPTVEWNAPPGRSAELERALNFLRAAAEDKRYSIALRLGAGEALIFRNDVISHGREAYRDDPAAPRHLIRTLYLESP
B5: enzyme E323G (UniProt H9KVH3); chain ADASQIVSEMGAGWNLGNQLEAAVNGTPNETAWGNPTVTPELIKKVKAAGFKSIRIPVSYLNNIGSAPNYTINAAWLNRIQQVVDYAYNEGLYVIINIHGDGYNSVQGGWLLVNGGNQTAIKEKYKKVWQQIATKFSNYNDRLIFESMNEVFDGNYGNPNSAYYTNLNAYNQIFVDTVRQTGGNNNARWLLVPGWNTNIDYTVGNYGFTLPTDNYRSSAIPSSQKRIMISAHYYSPWDFAGEENGNITQWGATSTNPAKKSTWGQEDYLESQFKSMYDKFVTQGYPVVIGGFGSIDKTSYDSSNNVYRAAYAKAVTAKAKKYKMVPVYWDNGHNGQHGFALFNRSNNTVTQQNIINAIMQGMQ
B6: HCT R356E (Coleus scutellarioides, UniProt E8ZAP2); chain MKIHVRDSTLVRPSAATPAVSLWNSNVDLVVPNFHTPSVYFYRPSGADNFFDTAVMKAALGRALVSFYPMAGRLKRDEDGRVEIDCNAEGVLFVEAESDGTVDDYGDFAPSLELRRLIPAVDYSQGISAYPLLVLQVTFFKCGGVSLGVGMQHHAADGFSGLHFINTWSDMARGLDITLPPFIDRTLLSARDPPQPQFKHVEYQPPPAMKTYEPAETVVSIFKLTKDQLTTLKAKSKEDGNTTTYSSYEMLSGHVWRCTCLARGLPEEQETKLYIATDGRSRLQPQLPPGYFGNVIFTATPLAVAGDLGSKPVWYAASKIHDALARMDNDYLRSALDFLELQPDLKALVRGAHTFECPNLGITSWVRLPIHDADFGWGRPIFMGPGGIAYEGLSFVLPSPTNDGSLSVAISLQAEHMKLFEKLLYQI
B7: enzyme (Brachypodium distachyon, UniProt I1IPY7); chain MEQGKAALGWAARDASGHLSPYNFSRRVQKDDDVTIKVLFCGICHTDLHIIKNEWGNALYPIVPGHEVVGVVTDVGPGVKNFKAGETVGVGYFLDSCRTCDSCSKGHENYCPTLVLTSNGVDYDGATTQGGFSDVVVVNQDYVVRVPDTLPPDGAAPLLCAGVTVYSPMMQYGLNAPGKHLGVVGLGGLGHMAVKFGKAFGMKVTVISSSLRKREEALDRLGADDFLVSSDAEQMKAAAGAMDGIIDTVSAGHPIVPLLELLRPMGQMVVCGAPSEPLQLPAYAVITGGKRIAGNGVGSVRDCQAMLDFAGEHGITADVEVVKMDYVNTAVERLERNDVRYRFVIDVAGSLQQGGAA
B8: protein Y93G (Thermus thermophilus, UniProt Q5SKR5); chain MSAPKPFVIGIAGGTASGKTTLAQALARTLGERVALLPMDHYYKDLGHLPLEERLRVNYDHPDAFDLALYLEHAQALLRGLPVEMPVYDFRAGTRSPRRTPVRPAPVVILEGILVLYPKELRDLMDLKVFVDADADERFIRRLKRDVLERGRSLEGVVAQYLEQVKPMHLHFVEPTKRYADVIVPRGGQNPVALEMLAAKALARLARMGAA
B9: ycjS (Escherichia coli, UniProt P77503); chain MKSAMTSSPLRVAIIGAGQVADKVHASYYCTRNDLELVAVCDSRLSQAQALAEKYGNASVWDDPQAMLLAVKPDVVSVCSPNRFHYEHTLMALEAGCHVMCEKPPAMTPEQAREMCDTARKLGKVLAYDFHHRFALDTQQLREQVTNGVLGEIYVTTARALRRCGVPGWGVFTNKELQGGGPLIDIGIHMLDAAMYVLGFPAVKSVNAHSFQKIGTQKSCGQFGEWDPATYSVEDSLFGTIEFHNGGILWLETSFALNIREQSIMNVSFCGDKAGATLFPAHIYTDNNGELMTLMQREIADDNRHLRSMEAFINHVQGKPVMIADAEQGYIIQQLVAALYQSAETGTRVEL
B10: protein (Stereum hirsutum, UniProt P9WEW0); chain MTVVDSPQRFYIPNCLEYWPWPRHINPHYQEVKKASAAWAESFGAFNPKAQHAYNACDFNLLASLAYPLESEERLRTGCDLMNMFFVFDEYSDVSSPKDVIQQAAIIMDALRNPYAPRPDDEWVGGEVTRQFWKRAIKTATAGAQRRFIDAFESYTQSVVQQAKDRHHGFIRDVDSYLEMRRETIGAKPSFVVLQMDMTLPDEVLAHPVIQQLSALSTDMICLGNDICSYNVEQARGDDLHNIITIAMNQFDIDIAGAMDWVVKYHAKLERKFLYLYNNGLPSWGKELDPQVERYVCGLGNWVRASDQWGFESERYFGKKGKEIFKRRWVNLMQPERAQDIGPTLVDGTRL
B11: TcA (Trypanosoma cruzi, UniProt Q4DRC4); chain MFIRLFAREEEGEKEGKICHMPREYEFAEKILFTEEEIRTRIKEVAKRIADDYKGKGLRPYVNPLVLISVLKGSFMFTADLCRALCDFNVPVRMEFICVSSYGEGLTSSGQVRMLLDTRHSIEGHHVLIVEDIVDTALTLNYLYHMYFTRRPASLKTVVLLDKREGRRVPFSADYVVANIPNAFVIGYGLDYDDTYRELRDIVVLRPEVYAEREAARQKKQRAIGSADTDRDAKREFHSKY
UniProt Q29437, sequence (whole entry, looked up): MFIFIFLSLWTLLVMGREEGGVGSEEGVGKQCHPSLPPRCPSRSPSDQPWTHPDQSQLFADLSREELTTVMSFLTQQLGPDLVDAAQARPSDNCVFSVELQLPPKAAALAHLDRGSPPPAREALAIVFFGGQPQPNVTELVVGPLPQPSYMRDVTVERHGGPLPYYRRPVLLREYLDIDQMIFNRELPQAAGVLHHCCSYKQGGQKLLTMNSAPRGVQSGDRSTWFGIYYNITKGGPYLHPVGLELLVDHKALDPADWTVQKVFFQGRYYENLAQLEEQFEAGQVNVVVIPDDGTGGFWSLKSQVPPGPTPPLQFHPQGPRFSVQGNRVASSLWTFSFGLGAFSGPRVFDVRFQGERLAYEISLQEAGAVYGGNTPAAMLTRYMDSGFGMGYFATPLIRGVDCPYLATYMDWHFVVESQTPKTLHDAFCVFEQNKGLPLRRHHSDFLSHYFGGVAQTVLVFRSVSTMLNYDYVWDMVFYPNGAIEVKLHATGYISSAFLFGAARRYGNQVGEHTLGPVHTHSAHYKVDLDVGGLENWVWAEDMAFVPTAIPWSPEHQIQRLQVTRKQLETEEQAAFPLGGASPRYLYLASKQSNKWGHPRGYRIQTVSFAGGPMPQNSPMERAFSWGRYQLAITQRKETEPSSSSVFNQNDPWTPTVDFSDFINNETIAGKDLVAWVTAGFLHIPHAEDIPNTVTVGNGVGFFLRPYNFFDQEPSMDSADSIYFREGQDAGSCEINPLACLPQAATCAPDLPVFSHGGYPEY
UniProt Q6P4A8, sequence (whole entry, looked up): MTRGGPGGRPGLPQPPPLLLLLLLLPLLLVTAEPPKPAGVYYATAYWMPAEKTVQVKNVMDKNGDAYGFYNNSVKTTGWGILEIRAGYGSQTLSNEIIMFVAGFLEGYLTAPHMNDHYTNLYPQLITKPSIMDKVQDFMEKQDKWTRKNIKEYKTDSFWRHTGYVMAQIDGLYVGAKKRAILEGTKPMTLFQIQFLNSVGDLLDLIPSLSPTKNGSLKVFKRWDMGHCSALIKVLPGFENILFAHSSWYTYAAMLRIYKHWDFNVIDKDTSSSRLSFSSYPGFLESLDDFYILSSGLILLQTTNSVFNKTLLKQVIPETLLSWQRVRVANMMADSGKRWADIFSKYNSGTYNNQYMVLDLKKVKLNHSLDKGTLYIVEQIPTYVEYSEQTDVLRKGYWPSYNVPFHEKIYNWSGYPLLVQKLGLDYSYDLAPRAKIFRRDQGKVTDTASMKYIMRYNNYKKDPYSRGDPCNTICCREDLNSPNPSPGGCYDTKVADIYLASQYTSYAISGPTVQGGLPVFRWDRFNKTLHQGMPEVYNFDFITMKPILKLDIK

B1 (enzyme)  kcat (Nc1nc2c(c(=O)[nH]1)N1CN(c3ccc(C(=O)N[C@@H](CCC(=O)O)C(=O)O)cc3)C[C@H]1CN2; pH 7.3, 27 °C): 88.3 ± 2 s⁻¹
B2 (AtTPS18 G328P)  kcat (CC(C)=CCC/C(C)=C/CC/C(C)=C/CC/C(C)=C/CC/C(C)=C/COP(=O)(O)OP(=O)(O)O; pH 7.5, 30 °C, product C5 measured, with: Mg2+ 10 mM): 0.047 ± 0.05 s⁻¹
B3 (LYPLA1)  kcat (CN(C)c1ccc(/N=N/c2ccc(C(=O)NCCCn3cc(CCCCCCCCCCCCCCCC(=O)OC[C@H](NC(=O)c4cc5ccc(O)cc5oc4=O)C(=O)N4CCOCC4)nn3)cc2)cc1; pH 7.4, 37 °C): 0.046 ± 0.004 s⁻¹
B4 (protein)  kcat (O=c1ccn([C@@H]2O[C@H](COP(=O)(O)O)[C@@H](O)[C@H]2O)c(=O)[nH]1; pH 7.5, 30 °C, with: αKG 2 mM, ascorbic acid 2 mM, FeCl2 0.4 mM): 4.4 ± 0.3 s⁻¹
enzyme (Thermococcus kodakarensis, UniProt Q5JID5)  kcat (C[S+](CC[C@H](N)C(=O)O)C[C@H]1O[C@@H](n2cnc3c(N)ncnc32)[C@H](O)[C@@H]1O; pH 7.5, 50 °C, apparent): 0.00817 ± 0.00133 s⁻¹
B5 (enzyme E323G)  kcat (OC[C@H]1O[C@H](F)[C@H](O)[C@@H](O)[C@@H]1O[C@@H]1O[C@H](CO[C@H]2OC[C@@H](O)[C@H](O)[C@H]2O)[C@@H](O[C@@H]2O[C@H](CO[C@H]3OC[C@@H](O)[C@H](O)[C@H]3O)[C@@H](O[C@@H]3O[C@H](CO[C@H]4OC[C@@H](O)[C@H](O)[C@H]4O)[C@@H](O)[C@H](O)[C@H]3O)[C@H](O)[C@H]2O)[C@H](O)[C@H]1O; pH 7.5, 30 °C, apparent): 1.22 ± 0.233 s⁻¹
B6 (HCT R356E)  kcat (NCCc1ccc(O)c(O)c1; pH 8, pseudo-first-order, with: p-coumaroyl CoA): 1.01 ± 0.02 s⁻¹
Plasma amine oxidase (Bos taurus, UniProt Q29437)  kcat (COc1ccc2cc(CN)ccc2c1; pH 7.2, 30 °C): 1.12 ± 0.04 s⁻¹
B7 (enzyme)  kcat (NC(=O)c1ccc[n+]([C@@H]2O[C@H](COP(=O)(O)OP(=O)(O)OC[C@H]3O[C@@H](n4cnc5c(N)ncnc54)[C@H](OP(=O)(O)O)[C@@H]3O)[C@@H](O)[C@H]2O)c1; pH 8.8, 23 °C, cofactor varied): 5.24 s⁻¹
B8 (protein Y93G)  kcat (Nc1ccn([C@@H]2O[C@H](CO)[C@@H](O)[C@H]2O)c(=O)n1; pH 7.2, 25 °C, KCl 100 mM, with: ATP 100–200 µM): 2.9 ± 0.2 s⁻¹
B9 (ycjS)  kcat (CO[C@H]1O[C@H](CO)[C@@H](O)C(=O)[C@H]1O; pH 7, 30 °C, with: NADH 0.3 mM): 22 ± 0.8 s⁻¹
B10 (protein)  kcat (CC(C)=CCC/C(C)=C/CC/C(C)=C/CO[P@@](=O)(O)OP(=O)(O)O; pH 8, NaCl 200 mM, with: FPP 1–100 µM): 0.0044 ± 0.0008 s⁻¹
protein (Strongylocentrotus purpuratus, UniProt A0A7M7RGC6)  kcat (CC(C)(COP(=O)(O)OP(=O)(O)OC[C@H]1O[C@@H](n2cnc3c(N)ncnc32)[C@H](O)[C@@H]1OP(=O)(O)O)[C@@H](O)C(=O)NCCC(=O)NCCSC(=O)CC(=O)O; without acetyl-CoA, with: malonyl-CoA): 0.00567 s⁻¹
POLH (Homo sapiens, UniProt Q9Y253)  kcat (Cc1cn([C@H]2C[C@H](O)[C@@H](COP(=O)(O)OP(=O)(O)OP(=O)(O)O)O2)c(=O)[nH]c1=O; pH 8, 37 °C, misinsertion opposite dT, with: Mg2+): 0.00233 ± 6.67e-05 s⁻¹
PLBD1 self-cleaved, cathepsin L-processed (Homo sapiens, UniProt Q6P4A8)  kcat (Cc1cc(=O)oc2cc(NC(=O)[C@@H](N)CC(C)C)ccc12; pH 4.5, 37 °C, with: cathepsin L): 0.74 s⁻¹
enzyme (Triticum aestivum, UniProt A0A6J4BJH4)  kcat (O=C1[C@@H](O[C@@H]2O[C@H](CO)[C@@H](O)[C@H](O)[C@H]2O)Oc2ccccc2N1O; pH 7.2, 30 °C): 0.524 s⁻¹
B11 (TcA)  kcat (Nc1nc2nc[nH]c2c(=O)[nH]1; pH 8.3, 37 °C, apparent, with: PRPP 1 mM, MgCl2 12 mM): 32 ± 1 s⁻¹

A few entries again:
PLBD1 self-cleaved, cathepsin L-processed (Homo sapiens, UniProt Q6P4A8)  kcat (Cc1cc(=O)oc2cc(NC(=O)[C@@H](N)CC(C)C)ccc12; pH 4.5, 37 °C, with: cathepsin L): 0.74 s⁻¹
B11 (TcA)  kcat (Nc1nc2nc[nH]c2c(=O)[nH]1; pH 8.3, 37 °C, apparent, with: PRPP 1 mM, MgCl2 12 mM): 32 ± 1 s⁻¹
enzyme (Thermococcus kodakarensis, UniProt Q5JID5)  kcat (C[S+](CC[C@H](N)C(=O)O)C[C@H]1O[C@@H](n2cnc3c(N)ncnc32)[C@H](O)[C@@H]1O; pH 7.5, 50 °C, apparent): 0.00817 ± 0.00133 s⁻¹
